# Published values pooled from the literature.
# Protocols differ between the studies behind these lines.
# Organism: Pseudomonas aeruginosa
SMILES,test,system,setting,MIC
CCOc1c(NC(=O)c2ccc(NC(=O)c3ccc(NC(=O)[C@H](Cc4c[nH]nn4)NC(=O)c4ccc(NC(=O)/C(C)=C/c5ccc(O)cc5)cc4)cc3)c(OCC)c2O)ccc(C(=O)O)c1O,broth microdilution,ciprofloxacin-sensitive,,0.5 µg/mL
COc1ccc(O)c(/C=N/[C@@H]2CCCC[C@@H]2/N=C/c2c(O)ccc3ccc(OC)cc23)c1,"microbial growth, broth dilution",,clinical isolate,> 40 µM
COc1c(NC(=O)c2ccc(NC(=O)c3ccc(NC(=O)[C@H](Cc4c[nH]nn4)NC(=O)c4ccc(NC(=O)/C(C)=C/c5ccc(O)cc5)cc4)cc3)c(OC)c2O)ccc(C(=O)O)c1O,broth microdilution,ciprofloxacin-resistant,,8 µg/mL
CC[C@H]1OC(=O)[C@H](C)[C@@H](OC(=O)Cc2c(F)cccc2F)[C@H](C)[C@@H](O[C@@H]2O[C@H](C)C[C@H](N(C)C)[C@H]2O)[C@](C)(OC)C[C@@H](C)C(=O)[C@H](C)[C@@H](O)[C@]1(C)O,,DSM 50071,with: colistin sulfate at 0.1 x MIC,> 128 µM
C#CCNC(=O)C1(O/N=C(\C(=O)N[C@@H]2C(=O)N(OS(=O)(=O)O)C2(C)C)c2csc(N)n2)CC1,"microbial growth, agar dilution",PAO1,,64 µg/mL
CC[C@H](C)[C@H](NC(=O)[C@H](CCC(N)=O)NC(=O)[C@H](Cc1ccccc1)NC(=O)[C@H](CC(N)=O)NC(=O)[C@H](CCCCN)NC(=O)[C@H](CC(C)C)NC(=O)[C@H](CCCNC(=N)N)NC(=O)[C@H](CCCCN)NC(=O)[C@H](CCCCN)NC(=O)[C@@H](NC(=O)[C@H](CO)NC(=O)[C@H](CCCCN)NC(=O)CNC(=O)[C@H](CC(C)C)NC(=O)[C@H](CCCCN)NC(=O)[C@H](CCCCN)NC(=O)[C@H](CC(C)C)NC(=O)[C@H](CCCCN)NC(=O)[C@H](CCCCN)NC(=O)[C@H](CCCNC(=N)N)NC(=O)[C@H](CC(C)C)NC(=O)CNC(=O)[C@@H](N)CCCNC(=N)N)[C@@H](C)CC)C(=O)NCC(=O)N[C@@H](Cc1ccccc1)C(=O)N[C@@H](CO)C(=O)N[C@H](C(=O)N1CCC[C@H]1C(=O)N[C@@H](Cc1ccccc1)C(=O)N[C@@H](C)C(=O)NCC(=O)O)C(C)C,broth microdilution,PA14,,8.93 µM
CCCCCCCCCc1nc2cc(Cl)ccc2c(=O)n1CCN,planktonic growth,PAO1,,> 100 µM
CC(C)C[C@@H]1NC(=O)[C@@H](CC(C)C)NC(=O)[C@H](CCN)NC(=O)[C@@H](NC(=O)[C@H](CCN)NC(=O)[C@@H](NC(=O)CN=[N+]=[N-])[C@@H](C)O)CCNC(=O)[C@H]([C@@H](C)O)NC(=O)[C@H](CCN)NC(=O)[C@H](CCN)NC1=O,broth microdilution,"ATCC 10145, cation-adjusted Mueller-Hinton broth","18 to 20 h, 37 °C, 0.002% polysorbate 80",8 µg/mL
CCCCCCCCCC(=O)Oc1c(C)c(OC)c2c(/C=C/c3ccccc3)c(CCCCCCCC)c(=O)oc2c1C,"microbial growth, broth dilution",ATCC27853,,5000 µg/mL
CCCCCCCC(=O)N[C@@H](CCN)C(=O)N[C@H](C(=O)N[C@@H](CCN)C(=O)N[C@H]1CCNC(=O)[C@H]([C@@H](C)O)NC(=O)[C@H](CCN)NC(=O)[C@H](CCN)NC(=O)[C@H](CC(C)C)NC(=O)[C@@H](Cc2ccccc2)NC(=O)[C@H](CCN)NC1=O)[C@@H](C)O,broth microdilution,"PAO1, colistin-susceptible",,0.25 µg/mL
O=C(O)c1ccccc(=O)c1O,broth microdilution,"ATCC 27853, CAMHB","16 to 24 h, ≥80% growth inhibition",> 71.4 µM
CC[C@H]1OC(=O)[C@H](C)[C@@H](O[C@H]2C[C@@](C)(OC)[C@@H](O)[C@H](C)O2)[C@H](C)[C@@H](O[C@@H]2O[C@H](C)C[C@H](N(C)C)[C@H]2O)[C@](C)(O)C[C@@H](C)CN(C)[C@H](C)[C@@H](O)[C@]1(C)O,broth microdilution,pyocyanin non-producing,,8 µg/mL
CCCCCCn1cc[n+](CCCCCCCCOc2cc(OCCCCCCCC[n+]3ccn(CCCCCC)c3)cc(OCCCCCCCC[n+]3ccn(CCCCCC)c3)c2)c1.[Br-].[Br-].[Br-],,PAO1,,2 µM
CC1(C)C(NC(=O)C(=NOC2(C(=O)O)CCC2)c2csc(N)n2)C(=O)N1OS(=O)(=O)O (stereo not drawn),agar dilution,ATCC 27853,,4 µg/mL
CC[C@H]1OC(=O)[C@H](C)[C@@H](OC(=O)Cc2c(F)cc([N+](=O)[O-])cc2F)[C@H](C)[C@@H](O[C@@H]2O[C@H](C)C[C@H](N(C)C)[C@H]2O)[C@](C)(OC)C[C@@H](C)C(=O)[C@H](C)[C@@H](O)[C@]1(C)O,,"PAO397, five efflux pumps deleted",,32 µg/mL
COc1ccc2ccc(O)c(/C=N/[C@H]3CCCC[C@H]3/N=C/c3ccccc3O)c2c1,"microbial growth, broth dilution",,,> 40 µM
COc1cc(C(=O)O)ccc1NC(=O)c1ccc(NC(=O)c2ccc(NC(=O)[C@H](Cc3c[nH]nn3)NC(=O)c3ccc(NC(=O)/C(C)=C/c4ccc(O)cc4)cc3)cc2)cc1,broth microdilution,ciprofloxacin-sensitive,,32 µg/mL
COc1ccc2ccc(O)c(/C=N/[C@H]3CCCC[C@H]3/N=C/c3cc(C)ccc3O)c2c1,"microbial growth, broth dilution",,clinical isolate,> 40 µM
NC[C@H]1O[C@H](O[C@H]2[C@H](O)[C@@H](O[C@H]3O[C@H](CO)[C@@H](O)[C@H](N)[C@H]3O)[C@H](N)C[C@@H]2N)[C@H](N)C[C@@H]1O,broth microdilution,phenazine non-producing,,0.125 µg/mL
COc1c(C)c(OS(=O)(=O)c2ccccc2)c(C)c(OS(=O)(=O)c2ccccc2)c1C(=O)/C=C/c1ccccc1,"microbial growth, broth dilution",ATCC27853,,5000 µg/mL
CC1(C)[C@H](NC(=O)/C(=N\OCc2c(Cl)cccc2Cl)c2csc(N)n2)C(=O)N1OS(=O)(=O)O,agar dilution,ATCC 27853,,> 64 µg/mL
CN[C@H](CC(C)C)C(=O)N[C@H]1C(=O)N[C@@H](CC(N)=O)C(=O)N[C@H]2C(=O)N[C@H]3C(=O)N[C@H](C(=O)N[C@H](C(=O)N[C@@H](CCCNC(=N)N)C(N)=O)c4cc(O)cc(O)c4-c4cc3ccc4O)[C@H](O)c3ccc(c(Cl)c3)Oc3cc2cc(c3O[C@@H]2O[C@H](CO)[C@@H](O)[C@H](O)[C@H]2O[C@H]2C[C@](C)(NCc3ccc(OCc4cn(CC(=O)N[C@H](C(=O)N[C@@H](CCN)C(=O)N[C@H]5CCNC(=O)[C@H]([C@@H](C)O)NC(=O)[C@H](CCN)NC(=O)[C@H](CCN)NC(=O)[C@H](CC(C)C)NC(=O)[C@@H](CC(C)C)NC(=O)[C@H](CCN)NC5=O)[C@@H](C)O)nn4)c(OC)c3)[C@H](O)[C@H](C)O2)Oc2ccc(cc2Cl)[C@H]1O,broth microdilution,"ATCC 10145, cation-adjusted Mueller-Hinton broth","18 to 20 h, 37 °C, 0.002% polysorbate 80",32 µg/mL
CC[C@H]1OC(=O)[C@H](C)[C@@H](OC(=O)c2ccc(N)cc2)[C@H](C)[C@@H](O[C@@H]2O[C@H](C)C[C@H](N(C)C)[C@H]2O)[C@](C)(OC)C[C@@H](C)C(=O)[C@H](C)[C@@H](O)[C@]1(C)O,,"PAO397, five efflux pumps deleted",,> 32 µg/mL
CCCCCCCC(=O)Oc1c(C)c(OC)c2c(/C=C/c3ccccc3)c(CCCCCC)c(=O)oc2c1C,"microbial growth, broth dilution",ATCC27853,,5000 µg/mL
CCCCCCCCn1cc[n+](CCCCOc2cc(OCCCC[n+]3ccn(CCCCCCCC)c3)cc(OCCCC[n+]3ccn(CCCCCCCC)c3)c2)c1.[Br-].[Br-].[Br-],,PAO1,,4 µM
O=C(O)c1cn(C2CC2)c2cc(N3CCNCC3)c(F)cc2c1=O,broth microdilution,phenazine non-producing,,0.03 µg/mL
CC(C)C[C@@H]1NC(=O)[C@@H](CC(C)C)NC(=O)[C@H](CCN)NC(=O)[C@@H](NC(=O)[C@H](CCN)NC(=O)[C@@H](N)[C@@H](C)O)CCNC(=O)[C@H]([C@@H](C)O)NC(=O)[C@H](CCN)NC(=O)[C@H](CCN)NC1=O,broth microdilution,"ATCC 17978, cation-adjusted Mueller-Hinton broth",,> 138 µM
CC[C@H]1OC(=O)[C@H](C)[C@@H](OC(=O)Cc2ccc3c(c2)OCO3)[C@H](C)[C@@H](O[C@@H]2O[C@H](C)C[C@H](N(C)C)[C@H]2O)[C@](C)(OC)C[C@@H](C)C(=O)[C@H](C)[C@@H](O)[C@]1(C)O,,DSM 50071,compound alone,> 64 µM
CC1(C)[C@H](NC(=O)/C(=N\OC2(C(=O)O)CCCCC2)c2csc(N)n2)C(=O)N1OS(=O)(=O)O,agar dilution,ATCC 27853,,32 µg/mL
CCCCCCCCCCCC[N+](C)(C)CCCCCCOc1cc(OCCCCCC[N+](C)(C)CCCCCCCCCCCC)cc(OCCCCCC[N+](C)(C)CCCCCCCCCCCC)c1.[Br-].[Br-].[Br-],,PAO1,,32 µM
CCOc1c(NC(=O)c2ccc(NC(=O)[C@H](Cc3c[nH]nn3)NC(=O)c3ccc(NC(=O)/C(C)=C/c4ccc(O)cc4)cc3)cc2)ccc(C(=O)Nc2ccc(C(=O)O)c(O)c2OC)c1O,broth microdilution,ciprofloxacin-resistant,,64 µg/mL
C#CCNC(=O)C(C)(C)O/N=C(\C(=O)N[C@@H]1C(=O)N(S(=O)(=O)O)[C@H]1C)c1csc(N)n1,"microbial growth, agar dilution",ATCC27,,64 µg/mL
CNC(C)C1CCC(N)C(OC2C(N)CC(N)C(OC3OCC(C)(O)C(NC)C3O)C2O)O1 (stereo not drawn),"microbial growth, broth dilution",27853,,1 µM
COc1cc(C(=O)O)ccc1NC(=O)c1ccc(NC(=O)c2ccc(NC(=O)[C@H](Cc3c[nH]nn3)NC(=O)c3ccc(NC(=O)/C(C)=C/c4ccc(O)cc4)cc3)cc2)c(OC)c1O,broth microdilution,ciprofloxacin-resistant,,32 µg/mL
C=CCO/N=C(\C(=O)N[C@@H]1C(=O)N(OS(=O)(=O)O)C1(C)C)c1nsc(N)n1,agar dilution,ATCC 27853,,16 µg/mL
CC[C@H]1OC(=O)[C@H](C)[C@@H](OC(=O)Cc2cccc(Cl)c2)[C@H](C)[C@@H](O[C@@H]2O[C@H](C)C[C@H](N(C)C)[C@H]2O)[C@](C)(OC)C[C@@H](C)C(=O)[C@H](C)[C@@H](O)[C@]1(C)O,,"PAO397, five efflux pumps deleted",,> 32 µg/mL

# Repeated from above:
SMILES,test,system,setting,MIC
CCOc1c(NC(=O)c2ccc(NC(=O)c3ccc(NC(=O)[C@H](Cc4c[nH]nn4)NC(=O)c4ccc(NC(=O)/C(C)=C/c5ccc(O)cc5)cc4)cc3)c(OCC)c2O)ccc(C(=O)O)c1O,broth microdilution,ciprofloxacin-sensitive,,0.5 µg/mL
COc1ccc(O)c(/C=N/[C@@H]2CCCC[C@@H]2/N=C/c2c(O)ccc3ccc(OC)cc23)c1,"microbial growth, broth dilution",,clinical isolate,> 40 µM
COc1c(NC(=O)c2ccc(NC(=O)c3ccc(NC(=O)[C@H](Cc4c[nH]nn4)NC(=O)c4ccc(NC(=O)/C(C)=C/c5ccc(O)cc5)cc4)cc3)c(OC)c2O)ccc(C(=O)O)c1O,broth microdilution,ciprofloxacin-resistant,,8 µg/mL
